Experimental data of several laboratories.
Every numbered part comes from another study and shows a few of its results, in no order. Substitutions count along the parent as printed.

Series 1
Target: Prothrombin, mature alpha-thrombin (F2, Homo sapiens, UniProt P00734)
Method: aptamer microarray, sandwich
Form: DNA with 2'F-ANA
Sample: in vitro
Tested at: 200 nM
Setting: whole 15-mer aptamer, many near background
With: Cy3 exosite-II aptamer, 400 nM
Reading: higher = stronger binding
Sequence: GGTTGGTGTGGTTGG
| Modification | mean fluorescence intensity [a.u.] |
| --- | --- |
| 2'F-ANA at 1 3 4 6 8 10 11 12 13 | 65.1 |
| 2'F-ANA at 6 7 8 10 | 181 |
| 2'F-ANA at 1 2 3 6 7 9 11 13 14 | 95 |
| 2'F-ANA at 5 9 11 13 14 15 | 45.8 |
| 2'F-ANA at 1 3 4 6 7 8 11 12 13 | 242 |
| 2'F-ANA at 1 2 3 4 8 10 12 14 15 | 63.3 |
| 2'F-ANA at 3 4 5 6 8 9 13 14 | 101 |
| 2'F-ANA at 1 2 5 6 8 13 14 | 48 |
| 2'F-ANA at 2 5 6 7 8 9 13 14 | 47 |
| 2'F-ANA at 2 8 9 11 13 15 | 298 |
| 2'F-ANA at 2 5 6 8 10 12 13 15 | 51.5 |
| 2'F-ANA at 2 3 4 6 8 10 11 14 | 161 |
| 2'F-ANA at 1 3 4 5 6 8 9 12 14 15 | 53.1 |
| 2'F-ANA at 3 5 7 8 11 | 136 |
| 2'F-ANA at 1 6 7 8 10 11 14 15 | 51.2 |
| 2'F-ANA at 1 3 8 9 10 11 15 | 78.9 |
| 2'F-ANA at 1 3 6 8 10 12 13 14 | 63.7 |
| 2'F-ANA at 1 2 4 6 10 11 13 14 15 | 52.6 |
| 2'F-ANA at 1 2 5 8 14 | 44.6 |
| 2'F-ANA at 3 5 6 7 8 9 10 12 13 14 15 | 51.6 |
| 2'F-ANA at 5 6 14 15 | 45.7 |
| 2'F-ANA at 3 4 5 6 7 8 9 11 12 13 15 | 109 |
| 2'F-ANA at 1 2 4 6 9 10 12 13 14 15 | 44.8 |
| 2'F-ANA at 2 4 5 8 9 10 12 13 15 | 48.9 |

Series 2
Target: CCNF, cyclin fold, Cln2 fusion (human)
Method: yeast growth competition, sequencing
Sample: yeast
Setting: strong parent motif
Baseline: not given
Reading: higher = stronger binding
Parent: SCAPER docking peptide (human); SNARRSLNFGGST
| Change | normalised enrichment score |
| --- | --- |
| SNLRRSLNFGGST [A3L] | 3.61 |
| SCARRSLNFGGST [N2C] | 5.9 |
| SNARRGLNFGGST [S6G] | 5.85 |
| SNAWRSLNFGGST [R4W] | 2.79 |
| PNARRSLNFGGST [S1P] | 8.67 |
| SNARRSLNFGGSE [T13E] | 7.41 |
| SNARRSLNFGGGT [S12G] | 7.99 |
| SNARRSLTFGGST [N8T] | 4.7 |
| SNAKRSLNFGGST [R4K] | 6.66 |
| SNARRSLNFGYST [G11Y] | 7.11 |
| DNARRSLNFGGST [S1D] | 6.14 |
| NNARRSLNFGGST [S1N] | 7.69 |
| SNARRSLWFGGST [N8W] | 8.44 |
| SNARRSLNYGGST [F9Y] | 2.36 |
| SNARRSLNFNGST [G10N] | 5.85 |
| SNARGSLNFGGST [R5G] | -0.481 |

Series 3
Target: BIRC6 UBC core domain (UniProt Q9NR09)
Method: yeast two-hybrid
Sample: yeast
Setting: mostly zero background
Baseline: not given
Reading: higher = stronger interaction
B1: MSL2 RING domain (UniProt Q9HCI7); chain LLPYFRQSLSCCVCGHLLQDPIAPTNSTCQHYVCKTCKGKKMMMKPSCSWCKDYEQFEENKQ
B2: TRIM35 RING domain (UniProt Q9UPQ4); chain PSRSFKEELLCAVCYDPFRDAVTLRCGHNFCRGCVSRCWEVQVSPTCPVCKDRASPADLRT
B3: RNF4 RING domain (UniProt P78317); chain TGLRPSGTVSCPICMDGYSEIVQNGRLIVSTECGHVFCSQCLRDSLKNANTCPTCRKKINHKRYHP
B4: RNF150 RING domain (UniProt Q9ULK6); chain DKETESDFDNCAVCIEGYKPNDVVRILPCRHLFHKSCVDPWLLDHRTCPMCKMNILKALGIP
B5: ANKIB1 RING domain (UniProt Q9P2G1); chain LSPGDLDTSLCDICMCSISVFEDPVDMPCGHDFCRGCWESFLNLKIQEGEAHNIFCPAYDCFQLVPVDIIE
B6: TRIM10 RING domain (UniProt Q9UDY6); chain SVTSLADEVNCPICQGTLREPVTIDCGHNFCRACLTRYCEIPGPDLEESPTCPLCKEPFRPGSFRP
B7: TRIM15 RING domain (UniProt Q9C019); chain SLKVVHELPACTLCAGPLEDAVTIPCGHTFCRLCLPALSQMGAQSSGKILLCPLCQEEEQAETPMA
Construct (chain): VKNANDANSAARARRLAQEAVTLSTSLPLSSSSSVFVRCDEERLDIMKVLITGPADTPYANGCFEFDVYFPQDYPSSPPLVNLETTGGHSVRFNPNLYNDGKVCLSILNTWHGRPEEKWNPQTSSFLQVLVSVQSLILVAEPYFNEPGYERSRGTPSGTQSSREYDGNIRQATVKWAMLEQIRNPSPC
| Molecule | lacZ reporter activity |
| --- | --- |
| B1 (MSL2 RING domain) | 0 |
| MANWVFCNRCFQPPHRTSCFSLTNCGHVYCDACLGKGKKNECLICKAPCRTVLLSK (RNF212 RING domain (UniProt Q495C1)) | 0 |
| SYEDKSNDFVCPICFDMIEEAYMTKCGHSFCYKCIHQSLEDNNRCPKCNYVVDNIDHLY (COP1 RING domain (UniProt Q8NHY2)) | 0 |
| B2 (TRIM35 RING domain) | 0 |
| B3 (RNF4 RING domain) | 0 |
| ISNDSETLEECMVCSDMKRDTLFGPCGHIATCSLCSPRVKKCLICKEQVQSRTKIE (MIB1 RING domain (UniProt Q86YT6)) | 0 |
| B4 (RNF150 RING domain) | 0 |
| B5 (ANKIB1 RING domain) | 0 |
| B6 (TRIM10 RING domain) | 0 |
| QLQDEEDDSLCRICMDAVIDCVLLECGHMVTCTKCGKRMSECPICRQYVVRAVHVF (RNF34 RING domain (UniProt Q969K3)) | 0 |
| KIKDLNEHIVCCLCAGYFVDATTITECLHTFCKSCIVKYLQTSKYCPMCNIKIHETQPLL (PCGF1 RING domain (UniProt Q9BSM1)) | 0 |
| B7 (TRIM15 RING domain) | 0 |

Series 4
Target: RNA binding protein fox-1 homolog 2, RRM domain, GST-SBP tag (RBFOX2, Homo sapiens, UniProt O43251-10, residues 100-194)
Method: RNA Bind-n-Seq
Form: RNA
Sample: in vitro
Tested at: 365 nM
Setting: natural RNA segment, single round, ends assumed
Baseline: no-protein control
Reading: higher = stronger binding
Shared flanks, not repeated: GGGAGUUCUACAGUCCGACGAUC … UGGAAUUCUCGGGUGCCAA
Residues (chain): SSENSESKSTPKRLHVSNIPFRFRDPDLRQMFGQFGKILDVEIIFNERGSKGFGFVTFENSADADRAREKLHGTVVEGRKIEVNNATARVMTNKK
| Sequence | RBNS enrichment (R) |
| --- | --- |
| AUUACAGUUUAAUUAAUUAUUCUUAGUGCUUAAGGCUUCAUAAAGUAAUUUUUCCAACCUUUUUUUUAAAAAUGUGCAUCUUUUAUUAUCUUUUAUGGUUAAACUUGGAA | 1.1 |
| UUAAUAAAUACUUAUUAAAAUGCUUAUUCUAAAGUACUAUGAUUUUAGUAAUGCUAUCAGUCCUCCAAGUGUUAGGGACAAUCUUAGAAUUCUCAUGUAAUGAGAAGCAA | 0.872 |
| CUUCCACUCAAAUCUGCUCAGGUUUGUUAUGCAGCGAUUGUGGCUGUCCGCUGUAUCUCCUCUGUGGGAGUAAACGCCACACUGUGUUUGUGAGUUCAGCACAGGGCCCA | 0.317 |
| GUGGUUUUUCCUAACUUACUUGCUAUCAACAUACCACUGGAAAAAAUCUCUGAGGUAUCAAAGAAUUUCUCCAUGAAGCCAGAUAAGUAUUCAAGAAUGCAUGGACCAGU | 2.78 |
| AGACGAAAGGGAGGGCCAAGGGCACCCCAGUUAACUGCCAGGACUGGCAGAGAGGUCCUGUGAGUCAUUUGAUGGACGAGUGCCUUUGACUGUGCUAGAUCUUCACUUCG | 1.16 |
| CCUCUCAGUAGGGGGCUUUUAGAGCAGUUGAAAUCUGCAGAACUGAACCUCUGAGGGCCAAAAUAGGACAUUUGGGAACAACUCCUUAACCCAUGAACUAGCUGUAACAU | 0.417 |
| GCUAUUAUUAGGCUUGCUUGUUACACACACAGGUCUAAGCCUAGUAUGUCAAUAAAGCAAAUACUUACUGUUUUGUUUCUAUUAAUGAUUCCCAAACCUUGUUGCAAGUU | 0.345 |
| CCCAUGUGCUAUCAUUAUAAUCAUGCAGACUUUUACUUCAGUUGCUUCUGAAAGCACUAAGUUUUCAGUUUUGGAGUUACUUCUCCCUUGCCUCUGACACACUGCACACG | 0.26 |
| GGUCUGAGGAUGCAUUCGAGAUGGCAGAUUCCCACUGCCGCUGCCCGCUCAGCCCAGCUGUUGGGAACAGCAUGGAGGCAGAUGUGGGGCUGAGCUGGGGAAUCAGGGUA | 8.99 |
| UGGUUCUGUAAAGCUCUUGUACCGCUGGAGAAACGGCAUCACUAUAAGCUAUGAGUUGAACUGUUUCUGUCAAGUAUGUCUUGUGUCCACACAUGGUUUGGAUGCUUCUA | 1.08 |
| UCUCAUCCAGGGUUCCAUGAAAGUUACCCAGGGUCCUCAUGUCCUUCCUUAGAGCCUGAGUGGUGUGAGGUGACAGGUCUCUCUCUCCACUGCCCCUUUCUGGUUUAAAA | 0.325 |
| CAGAUGACCUGCAGAAACAGAACUGUUCAGUAUUGGUUGGACUGCUCAUGGAUUUUGUAGCUGUUUAAAAAAAAAAAAAAGGUAGCUGUGAUACAAACCCCAGGACACCC | 0.368 |

Repeated from above (series 2):
| Change | normalised enrichment score |
| --- | --- |
| SNARRSLNFGGGT [S12G] | 7.99 |
| PNARRSLNFGGST [S1P] | 8.67 |
| SNAWRSLNFGGST [R4W] | 2.79 |
| SNARRSLWFGGST [N8W] | 8.44 |
